Measurements pooled from the literature.
Compare with care: the assays were run in different laboratories. “And” joins repeats or separate records; there may be more than shown.
B1: PGL-3 1-447 (Caenorhabditis elegans, UniProt G5EBV6); sequence looked up; chain MEANKRQIVEVDGIKSYFFPHLAHYLASNDELLVNNIAQANKLAAFVLGATDKRPSNEEIAEMILPNDSSAYVLAAGMDVCLILGDDFRPKFDSGAEKLSQLGQAHDLAPIIDDEKKISMLARKTKLKKSNDAKILQVLLKVLGAEEAEEKFVELSELSSALDLDFDVYVLAKLLGFASEELQEEIEIIRDNVTDAFEACKPLLKKLMIEGPKIDSVDPFTQLLLTPQEESIEKAVSHIVARFEEASAVEDDESLVLKSQLGYQLIFLVVRSLADGKRDASRTIQSLMPSSVRAEVFPGLQRSVFKSAVFLASHIIQVFLGSMKSFEDWAFVGLAEDLESTWRRRAIAELLKKFRISVLEQCFSQPIPLLPQSELNNETVIENVNNALQFALWITEFYGSESEKKSLNQLQFLSPKSKNLLVDSFKKFAQGLDSKDHVNRIIESLEK
B2: trfB Q53A (Escherichia coli, UniProt P03052); sequence looked up; chain MKKRLTESQFQEAIQGLEVGQQTIEIARGVLVDGKPQATFATSLGLTRGAVSAAVHRVWAAFEDKNLPEGYARVTAVLPEHQAYIVRKWEADAKKKQETKR
B3: CEBPB 257-336 (Homo sapiens, UniProt P17676); sequence looked up; chain SQVKSKAKKTVDKHSDEYKIRRERNNIAVRKSRDKAKMRNLETQHKVLELTAENERLQKKVEQLSRELSTLRNLFKQLPE
B4: cathepsin A (human); sequence looked up; chain APDQDEIQRLPGLAKQPSFRQYSGYLKGSGSKHLHYWFVESQKDPENSPVVLWLNGGPGCSSLDGLLTEHGPFLVQPDGVTLEYNPYSWNLIANVLYLESPAGVGFSYSDDKFYATNDTEVAQSNFEALQDFFRLFPEYKNNKLFLTGESYAGIYIPTLAVLVMQDPSMNLQGLAVGNGLSSYEQNDNSLVYFAYYHGLLGNRLWSSLQTHCCSQNKCNFYDNKDLECVTNLQEVARIVGNSGLNIYNLYAPCAGGVPSHFRYEKDTVVVQDLGNIFTRLPLKRMWHQALLRSGDKVRMDPPCTNTTAASTYLNNPYVRKALNIPEQLPQWDMCNFLVNLQYRRLYRSMNSQYLKLLSSQKYQILLYNGDVDMACNFMGDEWFVDSLNQKMEVQRRPWLVKYGDSGEQIAGFVKEFSHIAFLTIKGAGHMVPTDKPLAAFTMFSRFLNKQPY
B5: tebp-2 (Caenorhabditis elegans, UniProt Q22429); sequence looked up; chain MSTRAKKNKPSEPSFDDELLIWEFIYENTCNMQLFDDVNLDLFKQYLQEHESVFTAEQLYEFYVTRMKATLYKCELEPRKMLTLYKNLEIEMNQHVETLLEARFKTVLRVDSNRCLQKFSEFSAPETIPETLEETVPATAPEPERSRKLVNRMPLDVEISDSFEKLIWNHVYLNADRLTGKIVMAEEFWDQLLQSQPNIPIKSAYIVLHHFNIKMLENLWKQPMDPYAKARLIRDLAVPLSLRQRKWMLDNDRLNLKLSLNGFVEDWDIVP
B6: ldh 1-316 (Geobacillus stearothermophilus, UniProt P00344); chain MKNNGGARVVVIGAGFVGASYVFALMNQGIADEIVLIDANESKAIGDAMDFNHGKVFAPKPVDIWHGDYDDCRDADLVVICAGANQKPGETRLDLVDKNIAIFRSIVESVMASGFQGLFLVATNPVDILTYATWKFSGLPHERVIGSGTILDTARFRFLLGEYFSVAPQNVHAYIIGEHGDTELPVWSQAYIGVMPIRKLVESKGEEAQKDLERIFVNVRDAAYQIIEKKGATYYGIAMGLARVTRAILHNENAILTVSAYLDGLYGERDVYIGVPAVINRNGIREVIEIELNDDEKNRFHHSAATLKSVLARAFT
B7: Xpnpep2 24-649 (Rattus norvegicus, UniProt Q99MA2); sequence looked up; chain GPESLGREDVRDCSTNPPRLPVTAVNTTMRLAALRQQMEKSNLSAYIIPDTDAHMSEYIGKHDERRAWISGFTGSAGTAVVTKKKAAVWTDSRYWTQAERQMDCNWELHKEVSISSIVAWILAEVPDGENVGFDPFLFSVGSWENYDQELQDSNRHLLSITTNLVDVAWGSERPPVPSQPIYALPKEFTGSTWQEKVSAIRSYMQNHTMAPTGVLLSALDETAWLFNLRSSDIPYNPFFYSYTLLTDSSIRLFVNKSRFSLETLQYLNTNCTLPMCVQLEDYSQIRDGVKAYASGNVKILIGISYTTYGVYDVIPKEKLVTETYSPVMLIKAVKNSKEQALLKASHVRDAVAVIQYLVWLEKNVPKGTVDEFSGAEHIDQLRRNENFSSGPSFETISASGLNAALAHYSPTKELHRKLSLDEMYLVDSGGQYWDGTTDITRTVHWGTPTAFQKEAYTRVLMGNIDLSRLVFPAATSGRVVEAFARRALWEVGLNYGHGTGHGIGNFLCVHEWPVGFQYNNMAMAKGMFTSIEPGYYQDGEFGIRLEDVALVVEAKTKYPGTYLTFELVSFVPYDRNLIDVSLLSPEQLQYLNRYYQTIRENIGPELQRRQLLEEFAWLERHTEPLS
B8: TSPAN8 (Homo sapiens, UniProt P19075); sequence looked up; chain MAGVSACIKYSMFTFNFLFWLCGILILALAIWVRVSNDSQAIFGSEDVGSSSYVAVDILIAVGAIIMILGFLGCCGAIKESRCMLLLFFIGLLLILLLQVATGILGAVFKSKSDRIVNETLYENTKLLSATGESEKQFQEAIIVFQEEFKCCGLVNGAADWGNNFQHYPELCACLDKQRPCQSYNGKQVYKETCISFIKDFLAKNLIIVIGISFGLAVIEILGLVFSMVLYCQIGNK
B9: zwf 1-509 (Synechocystis sp. PCC 6803, UniProt P73411); chain MVTLLENPFRTGLRQERTPEPLILTIFGASGDLTQRKLVPAIYQMKRERRLPPELTVVGFARRDWSHDHFREQMRKGIEEFSTGIGSEDLWNEFAQGLFYCSGNMDDPESYLKLKNFLGELDEKRNTRGNRVFYLAVSPNFFPPGIKQLGAAGMLSDPVKSRIVIEKPFGRDLSSAQSLNRVVQSVCKENQVYRIDHYLGKETVQNLMVFRFANAIFEPLWNRQFVDHVQITVAETVGVEERAGYYESAGALRDMVQNHLMQLFCLTAMDPPNAIDADSIRNEKVKVLQATRLADINNLENAGIRGQYKAGWMGGKPVPGYREEPGVDPSSTTPTFAALKLMVDNWRWQGVPFYLRTGKRMPKKVSEIAIQFRQVPLLIFQSVAHQANPNVLSLRIQPNEGISLRFEAKMPGSELRTRTVDMDFSYGSSFGVAAADAYHRLLLDCMLGDQTLFTRADEVEEAWRVVTPVLSAWDAPSDPLSMPLYEAGTWEPAEAEWLINKDGRRWRRL
B10: RBKS E154R (Homo sapiens, UniProt Q9H477); sequence looked up; chain MAASGEPQRQWQEEVAAVVVVGSCMTDLVSLTSRLPKTGETIHGHKFFIGFGGKGANQCVQAARLGAMTSMVCKVGKDSFGNDYIENLKQNDISTEFTYQTKDAATGTASIIVNNEGQNIIVIVAGANLLLNTEDLRAAANVISRAKVMVCQLRITPATSLEALTMARRSGVKTLFNPAPAIADLDPQFYTLSDVFCCNESEAEILTGLTVGSAADAGEAALVLLKRGCQVVIITLGAEGCVVLSQTEPEPKHIPTEKVKAVDTTGAGDSFVGALAFYLAYYPNLSLEDMLNRSNFIAAVSVQAAGTQSSYPYKKDLPLTLF
B11: ADAR1 127-end 127-1226 R892H (human, UniProt P55265); sequence looked up; chain SSHFQELSIYQDQEQRILKFLEELGEGKATTAHDLSGKLGTPKKEINRVLYSLAKKGKLQKEAGTPPLWKIAVSTQAWNQHSGVVRPDGHSQGAPNSDPSLEPEDRNSTSVSEDLLEPFIAVSAQAWNQHSGVVRPDSHSQGSPNSDPGLEPEDSNSTSALEDPLEFLDMAEIKEKICDYLFNVSDSSALNLAKNIGLTKARDINAVLIDMERQGDVYRQGTTPPIWHLTDKKRERMQIKRNTNSVPETAPAAIPETKRNAEFLTCNIPTSNASNNMVTTEKVENGQEPVIKLENRQEARPEPARLKPPVHYNGPSKAGYVDFENGQWATDDIPDDLNSIRAAPGEFRAIMEMPSFYSHGLPRCSPYKKLTECQLKNPISGLLEYAQFASQTCEFNMIEQSGPPHEPRFKFQVVINGREFPPAEAGSKKVAKQDAAMKAMTILLEEAKAKDSGKSEESSHYSTEKESEKTAESQTPTPSATSFFSGKSPVTTLLECMHKLGNSCEFRLLSKEGPAHEPKFQYCVAVGAQTFPSVSAPSKKVAKQMAAEEAMKALHGEATNSMASDNQPEGMISESLDNLESMMPNKVRKIGELVRYLNTNPVGGLLEYARSHGFAAEFKLVDQSGPPHEPKFVYQAKVGGRWFPAVCAHSKKQGKQEAADAALRVLIGENEKAERMGFTEVTPVTGASLRRTMLLLSRSPEAQPKTLPLTGSTFHDQIAMLSHRCFNTLTNSFQPSLLGRKILAAIIMKKDSEDMGVVVSLGTGNHCVKGDSLSLKGETVNDCHAEIISRRGFIRFLYSELMKYNSQTAKDSIFEPAKGGEKLQIKKTVSFHLYISTAPCGDGALFDKSCSDRAMESTESRHYPVFENPKQGKLRTKVENGEGTIPVESSDIVPTWDGIRLGERLRTMSCSDKILRWNVLGLQGALLTHFLQPIYLKSVTLGYLFSQGHLTRAICCRVTRDGSAFEDGLRHPFIVNHPKVGRVSIYDSKRQSGKTKETSVNWCLADGYDLEILDGTRGTVDGPRNELSRVSKKNIFLLFKKLCSFRYRRDLLRLSYGEAKKAARDYETAKNYFKKGLKDMGYGNWISKPQEEKNFYLCPV
B12: cfbA 1-143 S11H (Methanocaldococcus jannaschii, UniProt Q58380); chain MEALVLVGHGHRLPYSKELLVKLAEKVKERNLFPIVEIGLMEFSEPTIPQAVKKAIEQGAKRIIVVPVFLAHGIHTTRDIPRLLGLIEDNHEHHHEHSHHHHHHHHHEHEKLEIPEDVEIIYREPIGADDRIVDIIIDRAFGR
B13: amtB 26-428 (Escherichia coli, UniProt P69681); chain VADKADNAFMMICTALVLFMTIPGIALFYGGLIRGKNVLSMLTQVTVTFALVCILWVVYGYSLAFGEGNNFFGNINWLMLKNIELTAVMGSIYQYIHVAFQGSFACITVGLIVGALAERIRFSAVLIFVVVWLTLSYIPIAHMVWGGGLLASHGALDFAGGTVVHINAAIAGLVGAYLIGKRVGFGKEAFKPHNLPMVFTGTAILYIGWFGFNAGSAGTANEIAALAFVNTVVATAAAILGWIFGEWALRGKPSLLGACSGAIAGLVGVTPACGYIGVGGALIIGVVAGLAGLWGVTMLKRLLRVDDPCDVFGVHGVCGIVGCIMTGIFAASSLGGVGFAEGVTMGHQLLVQLESIAITIVWSGVVAFIGYKLADLTVGLRVPEEQEREGLDVNSHGENAYNA
UniProt A0A348FUE1, sequence (whole entry, looked up): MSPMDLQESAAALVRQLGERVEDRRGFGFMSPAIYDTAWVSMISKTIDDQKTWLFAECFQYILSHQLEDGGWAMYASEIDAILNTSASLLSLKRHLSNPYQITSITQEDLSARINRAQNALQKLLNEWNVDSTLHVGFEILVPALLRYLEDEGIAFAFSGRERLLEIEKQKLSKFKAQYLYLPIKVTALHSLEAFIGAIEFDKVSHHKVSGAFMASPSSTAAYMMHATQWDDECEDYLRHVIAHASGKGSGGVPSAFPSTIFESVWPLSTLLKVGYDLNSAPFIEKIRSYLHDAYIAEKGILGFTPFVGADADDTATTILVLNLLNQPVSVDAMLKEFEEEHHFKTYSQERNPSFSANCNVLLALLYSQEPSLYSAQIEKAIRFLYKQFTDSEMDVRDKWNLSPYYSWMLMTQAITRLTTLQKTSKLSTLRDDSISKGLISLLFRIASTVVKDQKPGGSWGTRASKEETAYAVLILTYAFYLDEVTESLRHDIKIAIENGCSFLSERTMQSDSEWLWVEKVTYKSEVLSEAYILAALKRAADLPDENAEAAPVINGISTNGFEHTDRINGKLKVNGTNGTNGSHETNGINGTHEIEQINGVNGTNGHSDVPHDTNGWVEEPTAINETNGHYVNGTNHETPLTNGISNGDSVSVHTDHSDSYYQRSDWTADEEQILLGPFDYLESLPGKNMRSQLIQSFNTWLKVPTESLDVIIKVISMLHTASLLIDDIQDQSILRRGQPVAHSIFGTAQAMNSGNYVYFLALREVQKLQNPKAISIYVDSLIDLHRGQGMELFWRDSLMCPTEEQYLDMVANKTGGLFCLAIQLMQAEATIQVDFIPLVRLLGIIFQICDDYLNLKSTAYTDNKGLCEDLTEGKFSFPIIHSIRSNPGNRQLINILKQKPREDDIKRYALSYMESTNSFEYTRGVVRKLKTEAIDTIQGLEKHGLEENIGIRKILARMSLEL
UniProt Q9XSM3, sequence (whole entry, looked up): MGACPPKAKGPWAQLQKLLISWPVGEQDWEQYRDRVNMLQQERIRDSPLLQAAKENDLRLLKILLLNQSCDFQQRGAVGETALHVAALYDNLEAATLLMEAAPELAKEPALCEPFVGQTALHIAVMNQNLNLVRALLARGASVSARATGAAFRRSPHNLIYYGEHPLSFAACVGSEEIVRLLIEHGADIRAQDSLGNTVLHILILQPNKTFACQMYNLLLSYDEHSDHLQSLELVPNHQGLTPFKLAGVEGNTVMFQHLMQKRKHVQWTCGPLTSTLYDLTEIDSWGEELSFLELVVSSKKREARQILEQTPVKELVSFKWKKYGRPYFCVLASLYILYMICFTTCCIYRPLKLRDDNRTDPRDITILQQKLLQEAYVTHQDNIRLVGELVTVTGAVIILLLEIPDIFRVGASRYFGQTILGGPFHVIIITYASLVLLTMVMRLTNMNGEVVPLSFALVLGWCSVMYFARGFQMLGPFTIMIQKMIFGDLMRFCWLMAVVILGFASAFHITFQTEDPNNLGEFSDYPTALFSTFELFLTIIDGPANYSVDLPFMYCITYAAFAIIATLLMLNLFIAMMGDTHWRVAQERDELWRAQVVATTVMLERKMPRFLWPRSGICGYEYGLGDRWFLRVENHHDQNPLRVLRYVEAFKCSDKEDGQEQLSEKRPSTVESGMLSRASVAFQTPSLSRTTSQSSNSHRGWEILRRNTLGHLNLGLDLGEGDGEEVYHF
UniProt P26497, sequence (whole entry, looked up): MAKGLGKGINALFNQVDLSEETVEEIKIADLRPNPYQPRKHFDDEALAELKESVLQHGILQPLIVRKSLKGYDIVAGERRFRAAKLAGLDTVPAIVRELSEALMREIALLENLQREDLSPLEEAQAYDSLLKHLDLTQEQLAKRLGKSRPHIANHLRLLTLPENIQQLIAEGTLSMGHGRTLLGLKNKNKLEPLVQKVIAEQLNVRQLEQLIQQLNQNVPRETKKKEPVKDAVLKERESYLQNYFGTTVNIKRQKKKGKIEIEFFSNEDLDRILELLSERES
UniProt O74876, sequence (whole entry, looked up): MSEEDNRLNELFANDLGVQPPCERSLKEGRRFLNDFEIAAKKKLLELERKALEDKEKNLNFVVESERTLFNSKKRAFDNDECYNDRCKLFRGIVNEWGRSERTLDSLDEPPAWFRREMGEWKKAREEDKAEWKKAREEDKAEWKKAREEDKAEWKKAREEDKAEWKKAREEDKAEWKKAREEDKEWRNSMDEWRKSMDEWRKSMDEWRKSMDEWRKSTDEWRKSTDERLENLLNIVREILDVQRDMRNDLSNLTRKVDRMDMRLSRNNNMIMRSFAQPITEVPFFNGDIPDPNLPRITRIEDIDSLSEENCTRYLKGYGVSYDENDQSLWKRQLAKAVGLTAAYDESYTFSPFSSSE
UniProt P26368, sequence (whole entry, looked up): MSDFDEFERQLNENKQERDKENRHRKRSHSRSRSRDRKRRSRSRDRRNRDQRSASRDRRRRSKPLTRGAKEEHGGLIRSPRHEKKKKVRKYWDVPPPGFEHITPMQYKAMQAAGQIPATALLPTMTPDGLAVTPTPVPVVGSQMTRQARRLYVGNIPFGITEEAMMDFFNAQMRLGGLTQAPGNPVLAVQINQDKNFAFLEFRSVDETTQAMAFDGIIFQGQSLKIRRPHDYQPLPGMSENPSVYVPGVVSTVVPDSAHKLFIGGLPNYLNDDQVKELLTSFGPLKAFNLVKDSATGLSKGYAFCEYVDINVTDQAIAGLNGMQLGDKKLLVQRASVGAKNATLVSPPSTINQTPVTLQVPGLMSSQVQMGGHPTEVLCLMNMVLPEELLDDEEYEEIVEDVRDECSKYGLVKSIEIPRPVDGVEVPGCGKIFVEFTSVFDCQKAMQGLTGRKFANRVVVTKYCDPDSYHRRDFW

| Molecule | target or system | test | test system | conditions | scale | measurement | value |
| --- | --- | --- | --- | --- | --- | --- | --- |
| spo0J (Bacillus subtilis, UniProt P26497) | itself | SEC-MALS |  |  |  | subunits per oligomer | 2 |
| B1 (PGL-3 1-447) | itself | mass photometry |  |  |  | subunits per oligomer | 6 and 4 |
| B2 (trfB Q53A) | itself | SEC |  |  |  | subunits per oligomer | 2 |
| B3 (CEBPB 257-336) | itself | X-ray crystallography |  |  |  | subunits per oligomer | 2 |
| B4 (cathepsin A) | CYB5R4 knockout human cells | PP6 interaction, 3xFLAG-PP6C IP-MS |  | concentration not given | relative to: CYB5R4 KO over parental | log2 fold change | 0.56 |
| B5 (tebp-2) | itself | SEC-MALS |  |  |  | subunits per oligomer | 2 |
| B6 (ldh 1-316) | itself | AUC |  | 20 °C |  | subunits per oligomer | 4 |
| B7 (Xpnpep2 24-649) | itself | native MS |  |  |  | subunits per oligomer | 2 |
| B8 (TSPAN8) | itself | fluorescence intensity fluctuation spectrometry | HEK293T | in cells |  | subunits per oligomer | 2 |
| AUUUUCUUU (ssRNA) | U2AF2 148-342 (Homo sapiens, UniProt P26368) | sequencing of bound RNA | RNA | motif only |  | Kd | 8.22 µM |
| RQHLLPLLRRLARRLSSQDMREALLSCLLFVLSQQQPPDSGEASRVDHSQRKERLGPQK (Mymx ectodomain 26-84 (UniProt Q2Q5T5); sequence looked up) | itself | SDS-PAGE |  |  |  | subunits per oligomer | 2 |
| B9 (zwf 1-509) | itself | cryo-EM |  |  |  | subunits per oligomer | 3 |
| B10 (RBKS E154R) | itself | mass photometry |  |  |  | subunits per oligomer | 2 |
| TRPV5 (Oryctolagus cuniculus, UniProt Q9XSM3) | itself | SEC |  |  |  | subunits per oligomer | 4 |
| protein (Schizosaccharomyces pombe, UniProt O74876) | itself | mass photometry |  |  |  | subunits per oligomer | 4 |
| protein (Penicillium verruculosum, UniProt A0A348FUE1) | itself | SEC-SAXS |  |  |  | subunits per oligomer | 6 |
| B11 (ADAR1 127-end 127-1226 R892H) | itself | SEC |  |  |  | subunits per oligomer | 2 |
| B12 (cfbA 1-143 S11H) | itself | SEC |  |  |  | subunits per oligomer | 2 |
| B13 (amtB 26-428) | itself | native MS |  |  |  | subunits per oligomer | 3 |

A few entries again:
| Molecule | target or system | test | test system | conditions | scale | measurement | value |
| --- | --- | --- | --- | --- | --- | --- | --- |
| AUUUUCUUU (ssRNA) | U2AF2 148-342 (Homo sapiens, UniProt P26368) | sequencing of bound RNA | RNA | motif only |  | Kd | 8.22 µM |
| RQHLLPLLRRLARRLSSQDMREALLSCLLFVLSQQQPPDSGEASRVDHSQRKERLGPQK (Mymx ectodomain 26-84 (UniProt Q2Q5T5); sequence looked up) | itself | SDS-PAGE |  |  |  | subunits per oligomer | 2 |
